Experimental data from different studies.
Parts stem from different laboratories: compare values within a part only.
Sequence of UniProt Q86UE8 (whole entry, looked up): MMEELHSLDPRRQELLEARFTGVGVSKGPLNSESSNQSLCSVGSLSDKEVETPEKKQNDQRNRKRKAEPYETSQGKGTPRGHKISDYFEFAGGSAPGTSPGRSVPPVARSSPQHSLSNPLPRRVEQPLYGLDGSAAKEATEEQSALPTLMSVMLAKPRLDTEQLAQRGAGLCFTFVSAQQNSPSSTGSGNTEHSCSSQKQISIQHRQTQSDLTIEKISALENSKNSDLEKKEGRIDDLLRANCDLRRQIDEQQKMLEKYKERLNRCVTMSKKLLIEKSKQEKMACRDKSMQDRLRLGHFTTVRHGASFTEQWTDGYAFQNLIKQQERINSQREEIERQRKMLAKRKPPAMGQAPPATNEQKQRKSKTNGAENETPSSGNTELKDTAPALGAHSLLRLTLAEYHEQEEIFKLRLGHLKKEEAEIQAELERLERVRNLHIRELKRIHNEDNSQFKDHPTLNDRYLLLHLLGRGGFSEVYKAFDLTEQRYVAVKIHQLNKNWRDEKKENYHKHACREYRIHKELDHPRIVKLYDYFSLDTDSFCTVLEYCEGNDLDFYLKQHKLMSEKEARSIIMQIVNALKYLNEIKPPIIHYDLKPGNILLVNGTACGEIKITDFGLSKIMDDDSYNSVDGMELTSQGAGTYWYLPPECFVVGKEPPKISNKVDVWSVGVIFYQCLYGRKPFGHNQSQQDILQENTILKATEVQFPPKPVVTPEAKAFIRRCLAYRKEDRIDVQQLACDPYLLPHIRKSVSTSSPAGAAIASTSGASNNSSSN
Sequence of UniProt P46734 (whole entry, looked up): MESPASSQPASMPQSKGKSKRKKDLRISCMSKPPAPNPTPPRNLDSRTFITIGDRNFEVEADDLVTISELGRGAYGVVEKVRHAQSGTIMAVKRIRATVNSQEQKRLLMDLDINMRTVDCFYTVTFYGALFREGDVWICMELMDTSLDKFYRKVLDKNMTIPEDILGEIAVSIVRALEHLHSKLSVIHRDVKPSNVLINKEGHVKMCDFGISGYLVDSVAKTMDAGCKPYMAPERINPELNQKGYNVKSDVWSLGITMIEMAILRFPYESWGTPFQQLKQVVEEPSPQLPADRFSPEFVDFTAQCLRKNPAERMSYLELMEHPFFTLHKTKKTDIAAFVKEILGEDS
Sequence of UniProt Q9HAZ1 (whole entry, looked up): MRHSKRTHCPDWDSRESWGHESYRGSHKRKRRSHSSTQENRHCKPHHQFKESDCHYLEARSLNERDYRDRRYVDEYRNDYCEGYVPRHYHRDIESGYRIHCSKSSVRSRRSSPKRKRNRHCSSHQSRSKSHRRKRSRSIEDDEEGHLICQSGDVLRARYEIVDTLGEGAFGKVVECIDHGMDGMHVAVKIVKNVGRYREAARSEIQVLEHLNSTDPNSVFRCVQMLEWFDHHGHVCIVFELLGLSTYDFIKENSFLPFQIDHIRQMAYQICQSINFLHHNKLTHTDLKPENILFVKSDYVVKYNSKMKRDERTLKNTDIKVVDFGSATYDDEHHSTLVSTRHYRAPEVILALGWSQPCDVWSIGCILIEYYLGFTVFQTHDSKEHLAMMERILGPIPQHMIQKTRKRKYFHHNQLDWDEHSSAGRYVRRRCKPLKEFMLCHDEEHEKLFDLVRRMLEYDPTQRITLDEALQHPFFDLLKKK
Sequence of UniProt Q7KZI7 (whole entry, looked up): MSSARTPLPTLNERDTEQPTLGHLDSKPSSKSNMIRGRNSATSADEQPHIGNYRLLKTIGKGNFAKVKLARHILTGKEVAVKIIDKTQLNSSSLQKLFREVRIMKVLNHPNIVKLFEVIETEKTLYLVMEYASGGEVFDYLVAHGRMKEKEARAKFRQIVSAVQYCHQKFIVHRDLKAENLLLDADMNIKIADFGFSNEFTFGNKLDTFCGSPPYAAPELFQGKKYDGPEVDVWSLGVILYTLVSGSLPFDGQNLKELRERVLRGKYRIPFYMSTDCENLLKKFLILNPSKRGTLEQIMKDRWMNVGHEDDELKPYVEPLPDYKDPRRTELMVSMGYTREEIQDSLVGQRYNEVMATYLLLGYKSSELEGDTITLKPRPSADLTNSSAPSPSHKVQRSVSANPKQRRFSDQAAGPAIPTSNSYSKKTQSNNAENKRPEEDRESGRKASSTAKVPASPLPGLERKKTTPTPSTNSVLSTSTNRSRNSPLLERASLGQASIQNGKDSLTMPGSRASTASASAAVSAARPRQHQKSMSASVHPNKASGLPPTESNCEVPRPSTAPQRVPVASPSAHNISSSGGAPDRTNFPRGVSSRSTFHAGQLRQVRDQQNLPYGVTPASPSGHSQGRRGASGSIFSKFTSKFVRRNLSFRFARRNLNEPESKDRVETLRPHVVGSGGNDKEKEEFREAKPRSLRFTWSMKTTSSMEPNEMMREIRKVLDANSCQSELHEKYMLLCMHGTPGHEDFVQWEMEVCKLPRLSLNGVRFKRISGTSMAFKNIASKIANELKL
Sequence of UniProt P31751 (whole entry, looked up): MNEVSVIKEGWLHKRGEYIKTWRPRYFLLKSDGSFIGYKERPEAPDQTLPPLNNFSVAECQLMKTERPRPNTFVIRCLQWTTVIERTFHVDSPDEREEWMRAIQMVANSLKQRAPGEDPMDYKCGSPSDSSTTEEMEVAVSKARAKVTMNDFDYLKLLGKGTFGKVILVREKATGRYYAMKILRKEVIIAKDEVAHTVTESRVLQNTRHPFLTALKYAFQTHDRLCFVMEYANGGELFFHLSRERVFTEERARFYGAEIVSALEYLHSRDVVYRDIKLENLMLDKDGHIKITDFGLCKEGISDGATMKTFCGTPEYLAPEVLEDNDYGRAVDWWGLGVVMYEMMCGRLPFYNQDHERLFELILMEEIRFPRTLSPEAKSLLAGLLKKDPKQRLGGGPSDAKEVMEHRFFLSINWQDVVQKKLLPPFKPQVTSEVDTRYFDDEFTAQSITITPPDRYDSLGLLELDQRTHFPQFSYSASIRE
Sequence of UniProt Q8WXR4 (whole entry, looked up): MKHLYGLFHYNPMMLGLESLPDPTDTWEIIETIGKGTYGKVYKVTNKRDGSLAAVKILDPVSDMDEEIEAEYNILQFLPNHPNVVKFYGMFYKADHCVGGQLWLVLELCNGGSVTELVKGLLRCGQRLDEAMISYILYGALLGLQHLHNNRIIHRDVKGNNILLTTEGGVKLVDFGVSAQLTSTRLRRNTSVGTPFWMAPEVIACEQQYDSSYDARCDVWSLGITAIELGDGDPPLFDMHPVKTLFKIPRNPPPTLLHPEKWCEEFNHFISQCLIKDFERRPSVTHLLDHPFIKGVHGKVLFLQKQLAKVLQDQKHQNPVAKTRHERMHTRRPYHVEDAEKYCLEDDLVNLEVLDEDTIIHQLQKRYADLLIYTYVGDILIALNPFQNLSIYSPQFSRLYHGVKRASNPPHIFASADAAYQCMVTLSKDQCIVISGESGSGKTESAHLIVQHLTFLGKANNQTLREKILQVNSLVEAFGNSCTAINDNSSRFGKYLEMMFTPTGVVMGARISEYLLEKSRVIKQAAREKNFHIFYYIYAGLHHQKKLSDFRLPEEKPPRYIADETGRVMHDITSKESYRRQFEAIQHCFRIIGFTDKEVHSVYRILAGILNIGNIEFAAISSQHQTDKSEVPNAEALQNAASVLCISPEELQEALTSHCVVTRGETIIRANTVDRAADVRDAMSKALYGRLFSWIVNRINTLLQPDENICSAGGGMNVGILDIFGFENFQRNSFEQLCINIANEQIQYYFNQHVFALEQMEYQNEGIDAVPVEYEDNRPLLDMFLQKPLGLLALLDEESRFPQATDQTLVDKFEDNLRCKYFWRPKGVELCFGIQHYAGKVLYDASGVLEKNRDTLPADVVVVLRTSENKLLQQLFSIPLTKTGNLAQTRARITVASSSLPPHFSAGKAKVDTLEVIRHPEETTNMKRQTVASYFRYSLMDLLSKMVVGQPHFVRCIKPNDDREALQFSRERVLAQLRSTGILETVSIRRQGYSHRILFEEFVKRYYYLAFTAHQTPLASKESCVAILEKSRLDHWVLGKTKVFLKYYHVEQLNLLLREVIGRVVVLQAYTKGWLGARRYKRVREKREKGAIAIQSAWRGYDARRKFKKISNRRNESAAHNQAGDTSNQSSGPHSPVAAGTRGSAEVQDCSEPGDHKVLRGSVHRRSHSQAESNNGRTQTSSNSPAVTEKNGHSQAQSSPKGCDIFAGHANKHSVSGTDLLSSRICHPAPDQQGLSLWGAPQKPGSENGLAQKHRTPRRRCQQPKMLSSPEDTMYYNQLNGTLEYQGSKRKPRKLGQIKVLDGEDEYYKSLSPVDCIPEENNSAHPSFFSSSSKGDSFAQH
Sequence of UniProt Q6P2M8 (whole entry, looked up): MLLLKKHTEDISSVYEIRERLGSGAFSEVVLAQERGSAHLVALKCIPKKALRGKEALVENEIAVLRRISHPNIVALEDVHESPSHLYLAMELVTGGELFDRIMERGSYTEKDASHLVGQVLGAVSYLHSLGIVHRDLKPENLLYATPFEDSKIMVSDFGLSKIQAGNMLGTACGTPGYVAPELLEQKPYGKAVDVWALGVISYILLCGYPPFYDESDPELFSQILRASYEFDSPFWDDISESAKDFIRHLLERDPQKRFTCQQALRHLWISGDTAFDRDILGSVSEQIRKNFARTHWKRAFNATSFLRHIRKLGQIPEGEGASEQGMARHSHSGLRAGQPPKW
Sequence of UniProt P28482 (whole entry, looked up): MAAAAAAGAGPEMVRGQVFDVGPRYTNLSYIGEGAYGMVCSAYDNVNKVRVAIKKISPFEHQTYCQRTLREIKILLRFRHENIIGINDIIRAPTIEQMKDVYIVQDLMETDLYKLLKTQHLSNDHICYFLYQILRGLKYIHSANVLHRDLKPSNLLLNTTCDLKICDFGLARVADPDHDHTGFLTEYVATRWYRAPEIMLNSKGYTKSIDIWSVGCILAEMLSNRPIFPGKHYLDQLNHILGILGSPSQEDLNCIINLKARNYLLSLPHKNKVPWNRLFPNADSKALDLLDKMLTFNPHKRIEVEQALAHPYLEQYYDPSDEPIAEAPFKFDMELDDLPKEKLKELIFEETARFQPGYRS

Study 1
Compound: O=C(O)[C@H]1[C@H](Cn2nnc3ccccc3c2=O)CC[C@@H]1C(=O)c1ccc(OCCC2CCOCC2)cc1
Effect on: cell-free assay
Method: competition with immobilised ligand
Concentration: 1 µM
The remaining binding was 90% (MAP2K3 (Homo sapiens, UniProt P46734)).
The remaining binding was 98% (TLK2 (Homo sapiens, UniProt Q86UE8)).
For Cyclin-dependent kinase 4, with cyclin D3 (CDK4, Homo sapiens, UniProt P11802): remaining binding read 89%.
The remaining binding was 79% (Tyrosine-protein kinase ABL1, phosphorylated (ABL1, Homo sapiens, UniProt P00519, T315I)).

Study 2
Structure (SMILES): Nc1ccc2ncnc(NCCc3ccc(Oc4ccccc4)cc3)c2c1
Effect on: enzyme activity
Action: inhibitor
Concentration: 0.5 µM
Baseline: control
MAPK1 (Homo sapiens, UniProt P28482) — remaining activity: 90.1%.
It gave 108% for remaining activity (NEK3 (Homo sapiens, UniProt P51956)).
For TLK2 (Homo sapiens, UniProt Q86UE8): remaining activity read 92.8%.
It gave 98.5% for remaining activity (PNCK (Homo sapiens, UniProt Q6P2M8)).
It gave 105% for remaining activity (CDC42BPB (Homo sapiens, UniProt Q9Y5S2)).
The remaining activity was 101% (AKT2 (Homo sapiens, UniProt P31751)).
It gave 96.6% for remaining activity (Myosin-IIIb (MYO3B, Homo sapiens, UniProt Q8WXR4)).
MET (Homo sapiens, UniProt P08581) — remaining activity: 99.9%.
CLK4 (Homo sapiens, UniProt Q9HAZ1) — remaining activity: 94.6%.
For KDR (Homo sapiens, UniProt P35968): remaining activity read 91.7%.
It gave 84.9% for remaining activity (MARK2 (Homo sapiens, UniProt Q7KZI7)).
PAK3 (Homo sapiens, UniProt O75914) — remaining activity: 102%.
The remaining activity was 105% (PRKG2 (Homo sapiens, UniProt Q13237)).

Study 3
Cell line: HuT78
Concentration: 2 µM
Time: 48 h
Baseline: untreated
`Cc1ccc(-n2nc(C(C)(C)C)cc2NC(=O)Nc2ccc(OCCN3CCOCC3)c3ccccc23)cc1` gave a viability of 99.9%.
For `O=C(Cc1ccc(-c2ccc(OCCN3CCOCC3)cc2)cn1)NCc1ccccc1`, the viability was 20.5%.
The viability of `Cc1cnc(Nc2ccc(OCCN3CCCC3)cc2)nc1Nc1cccc(S(=O)(=O)NC(C)(C)C)c1` is reported as 76.3%.
With `COc1cc2ncc(-c3ccccc3)nc2cc1OC` the viability was 93.5%.
For `CCn1c2ccccc2c2cc(Nc3ccnc(NCCCN4CCOCC4)n3)ccc21`, the viability was 88.9%.

Study 4
Cell line: HaCaT
Concentration: 100 µM
Time: 60 h
`NC(=O)NO` has a viability of 98.3%.
The viability of `N[C@@H](Cc1c[nH]c2ccccc12)C(=O)O` is reported as 121%.
With `COc1ccccc1N1CCN(CC(O)COc2cccc3ccccc23)CC1` (stereo not drawn) the viability was 16.4%.
For `NCCNc1ccc(NCCN)c2c1C(=O)c1ccncc1C2=O`, the viability was 13.5%.
For `CN(C)c1ccc(O)c2c1C[C@H]1C[C@H]3[C@H](N(C)C)C(O)=C(C(N)=O)C(=O)[C@@]3(O)C(O)=C1C2=O`, the viability was 110%.

Excerpt of the above (study 2):
For KDR (Homo sapiens, UniProt P35968): remaining activity read 91.7%.
It gave 84.9% for remaining activity (MARK2 (Homo sapiens, UniProt Q7KZI7)).
PAK3 (Homo sapiens, UniProt O75914) — remaining activity: 102%.
The remaining activity was 105% (PRKG2 (Homo sapiens, UniProt Q13237)).
